Published values gathered from unrelated publications.
Protocols differ between the studies behind these lines. Values joined by “and” are separate records of one study, mostly repeats; a detail may differ. Numbers after ± are the reported error.
B1: ATG9 864-997 (Saccharomyces cerevisiae, UniProt Q12142); sequence looked up; chain SFLNNKYSWRKQFQPGQKPELFRIGKHALGPGHNISPAIYSTRNPGKNWDNNNNGDDIKNGTNNATAKNDDNNGNNDHEYVLTESFLDSGAFPNHDVIDHNKMLNSNYNGNGILNKGGVLGLVKEYYKKSDVGR
B2: BTN2A1 residues 271-527 (Homo sapiens, UniProt Q7KYR7); chain KLQKEKKILSGEKEFERETREIALKELEKERVQKEEELQVKEKLQEELRWRRTFLHAVDVVLDPDTAHPDLFLSEDRRSVRRCPFRHLGESVPDNPERFDSQPCVLGRESFASGKHYWEVEVENVIEWTVGVCRDSVERKGEVLLIPQNGFWTLEMHKGQYRAVSSPDRILPLKESLCRVGVFLDYEAGDVSFYNMRDRSHIYTCPRSAFSVPVRPFFRLGCEDSPIFICPALTGANGVTVPEEGLTLHRVGTHQSL
B3: TARDBP 262-414 (Homo sapiens, UniProt Q13148); chain PKHNSNRQLERSGRFGGNPGGFGNQGGFGNSRGGGAGLGNNQGSNMGGGMNFGAFSINPAMMAAAQAALQSSWGMMGMLASQQNQSGPSGNNQNQGNMQREPNQAFGSGNNSYSGSNSGAAIGWGSASNAGSGSGFNGGFGSSMDSKSSGWGM
B4: UHRF1 RING-UBL 675-793 (UniProt Q96T88); chain SLTAQQSSLIREDKSNAKLWNEVLASLKDRPASGSPFQLFLSKVEETFQCICCQELVFRPITTVCQHNVCKDCLDRSFRAQVFSCPACRYDLGRSYAMQVNQPLQTVLNQLFPGYGNGRGGSSGGSSGGSSGGSSMWIQVRTMDGRQTHTVDSLSRLTKVEELRRKIQELFHVEPGLQRLFYRGKQMEDGHTLFDYEVRLNDTIQLLVRQS
B5: Notch1 221-526 (Mus musculus, UniProt Q01705); sequence looked up; chain PCSPSPCQNGGTCRPTGDTTHECACLPGFAGQNCEENVDDCPGNNCKNGGACVDGVNTYNCRCPPEWTGQYCTEDVDECQLMPNACQNGGTCHNTHGGYNCVCVNGWTGEDCSENIDDCASAACFQGATCHDRVASFYCECPHGRTGLLCHLNDACISNPCNEGSNCDTNPVNGKAICTCPSGYTGPACSQDVDECALGANPCEHAGKCLNTLGSFECQCLQGYTGPRCEIDVNECISNPCQNDATCLDQIGEFQCICMPGYEGVYCEINTDECASSPCLHNGHCMDKINEFQCQCPKGFNGHLCQ
B6: IL18 37-193 L45C/C74S/C104S/C112S/C163S/E192C (Homo sapiens, UniProt Q14116); chain YFGKLESKCSVIRNLNDQVLFIDQGNRPLFEDMTDSDSRDNAPRTIFIISMYKDSQPRGMAVTISVKSEKISTLSSENKIISFKEMNPPDNIKDTKSDIIFFQRSVPGHDNKMQFESSSYEGYFLASEKERDLFKLILKKEDELGDRSIMFTVQNCD
B7: TNFSF4 51-183 (Homo sapiens, UniProt P23510); sequence looked up; chain QVSHRYPRIQSIKVQFTEYKKEKGFILTSQKEDEIMKVQNNSVIINCDGFYLISLKGYFSQEVNISLHYQKDEEPLFQLKKVRSVNSLMVASLTYKDKVYLNVTTDNTSLDDFHVNGGELILIHQNPGEFCVL
B8: Pigr 19-135 (Mus musculus, UniProt O70570); chain KSPIFGPQEVSSIEGDSVSITCYYPDTSVNRHTRKYWCRQGASGMCTTLISSNGYLSKEYSGRANLINFPENNTFVINIEQLTQDDTGSYKCGLGTSNRGLSFDVSLEVSQVPELPS
B9: acpP (Escherichia coli, UniProt P0A6A8); 4-DMN-phosphopantetheine; sequence looked up; chain MSTIEERVKKIIGEQLGVKQEEVTNNASFVEDLGADSLDTVELVMALEEEFDTEIPDEEAEKITTVQAAIDYINGHQA
B10: ADRM1 265-388 (Homo sapiens, UniProt Q16186); chain SDLQSILATMNVPAGPAGGQQVDLASVLTPEIMAPILANADVQERLLPYLPSGESLPQTADEIQNTLTSPQFQQALGMFSAALASGQLGPLMCQFGLPAEAVEAANKGDVEAFAKAMQNNAKPE
B11: BBC3 (Homo sapiens, UniProt Q9BXH1); chain MARARQEGSSPEPVEGLARDGPRPFPLGRLVPSAVSCGLCEPGLAAAPAAPTLLPAAYLCAPTAPPAVTAALGGSRWPGGPRSRPRGPRPDGPQPSLSLAEQHLESPVPSAPGALAGGPTQAAPGVRGEEEQWAREIGAQLRRMADDLNAQYERRRQEEQQRHRPSPWRVLYNLIMGLLPLPRGHRAPEMEPN
B12: SRS2 1107-1174 Q1155E (Saccharomyces cerevisiae, UniProt P12954); N-terminal cysteine BODIPY-FL; chain CHNPDDTTVDNRPIISNAKFLADAAMKKTQKFSKKVKNEPASSQMDIFSELSRAKKKSKLNNGEIIVID
B13: human 4F2hc (SLC3A2); sequence looked up; chain MELQPPEASIAVVSIPRQLPGSHSEAGVQGLSAGDDSELGSHCVAQTGLELLASGDPLPSASQNAEMIETGSDCVTQAGLQLLASSDPPALASKNAEVTGTMSQDTEVDMKEVELNELEPEKQPMNAASGAAMSLAGAEKNGLVKIKVAEDEAEAAAAAKFTGLSKEELLKVAGSPGWVRTRWALLLLFWLGWLGMLAGAVVIIVRAPRCRELPAQKWWHTGALYRIGDLQAFQGHGAGNLAGLKGRLDYLSSLKVKGLVLGPIHKNQKDDVAQTDLLQIDPNFGSKEDFDSLLQSAKKKSIRVILDLTPNYRGENSWFSTQVDTVATKVKDALEFWLQAGVDGFQVRDIENLKDASSFLAEWQNITKGFSEDRLLIAGTNSSDLQQILSLLESNKDLLLTSSYLSDSGSTGEHTKSLVTQYLNATGNRWCSWSLSQARLLTSFLPAQLLRLYQLMLFTLPGTPVFSYGDEIGLDAAALPGQPMEAPVMLWDESSFPDIPGAVSANMTVKGQSEDPGSLLSLFRRLSDQRSKERSLLHGDFHAFSAGPGLFSYIRHWDQNERFLVVLNFGDVGLSAGLQASDLPASASLPAKADLLLSTQPGREEGSPLELERLKLEPHEGLLLRFPYAA
Chain of UniProt P70345 (whole entry, looked up): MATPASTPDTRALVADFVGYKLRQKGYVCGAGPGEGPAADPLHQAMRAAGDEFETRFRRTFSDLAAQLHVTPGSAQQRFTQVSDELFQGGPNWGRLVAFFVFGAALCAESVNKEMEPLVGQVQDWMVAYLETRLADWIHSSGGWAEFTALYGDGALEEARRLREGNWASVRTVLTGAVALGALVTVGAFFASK
Chain of UniProt Q9UJY1 (whole entry, looked up): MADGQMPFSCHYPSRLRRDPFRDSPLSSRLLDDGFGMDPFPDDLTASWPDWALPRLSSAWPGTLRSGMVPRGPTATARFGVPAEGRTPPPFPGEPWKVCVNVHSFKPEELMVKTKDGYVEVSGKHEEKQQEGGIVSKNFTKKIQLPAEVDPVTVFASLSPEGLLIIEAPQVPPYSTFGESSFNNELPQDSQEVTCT
Chain of UniProt Q23985 (whole entry, looked up): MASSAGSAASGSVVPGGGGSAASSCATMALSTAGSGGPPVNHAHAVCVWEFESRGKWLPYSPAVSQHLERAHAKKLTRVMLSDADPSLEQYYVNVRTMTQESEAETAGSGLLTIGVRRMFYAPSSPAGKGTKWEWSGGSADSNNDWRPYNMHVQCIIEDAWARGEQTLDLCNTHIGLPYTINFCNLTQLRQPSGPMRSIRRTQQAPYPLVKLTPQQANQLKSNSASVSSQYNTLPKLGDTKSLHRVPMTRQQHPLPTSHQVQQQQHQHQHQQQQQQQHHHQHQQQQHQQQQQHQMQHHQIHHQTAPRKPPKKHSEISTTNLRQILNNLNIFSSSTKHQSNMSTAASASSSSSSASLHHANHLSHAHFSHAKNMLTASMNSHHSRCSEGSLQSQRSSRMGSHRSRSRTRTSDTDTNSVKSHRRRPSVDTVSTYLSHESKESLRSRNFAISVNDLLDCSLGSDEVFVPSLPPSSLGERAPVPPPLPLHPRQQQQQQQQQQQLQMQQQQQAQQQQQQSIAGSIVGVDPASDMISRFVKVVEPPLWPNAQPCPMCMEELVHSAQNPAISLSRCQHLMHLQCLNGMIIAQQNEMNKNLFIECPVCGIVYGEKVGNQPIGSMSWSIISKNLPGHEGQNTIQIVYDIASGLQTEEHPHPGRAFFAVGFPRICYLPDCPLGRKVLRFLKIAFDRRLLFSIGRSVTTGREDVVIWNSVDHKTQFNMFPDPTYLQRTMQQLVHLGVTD
Chain of UniProt Q9ZU93 (whole entry, looked up): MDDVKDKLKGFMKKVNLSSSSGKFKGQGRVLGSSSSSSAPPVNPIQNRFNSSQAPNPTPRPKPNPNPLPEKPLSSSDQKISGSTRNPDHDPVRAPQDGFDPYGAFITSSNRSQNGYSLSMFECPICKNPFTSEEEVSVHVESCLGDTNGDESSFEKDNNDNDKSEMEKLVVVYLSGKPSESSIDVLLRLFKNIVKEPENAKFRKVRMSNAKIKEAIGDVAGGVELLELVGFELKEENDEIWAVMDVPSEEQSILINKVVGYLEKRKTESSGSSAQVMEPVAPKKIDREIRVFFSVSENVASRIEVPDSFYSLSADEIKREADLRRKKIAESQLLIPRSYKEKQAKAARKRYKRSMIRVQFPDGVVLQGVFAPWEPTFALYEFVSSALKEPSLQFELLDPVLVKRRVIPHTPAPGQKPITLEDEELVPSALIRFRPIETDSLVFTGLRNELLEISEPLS
Chain of UniProt Q06671 (whole entry, looked up): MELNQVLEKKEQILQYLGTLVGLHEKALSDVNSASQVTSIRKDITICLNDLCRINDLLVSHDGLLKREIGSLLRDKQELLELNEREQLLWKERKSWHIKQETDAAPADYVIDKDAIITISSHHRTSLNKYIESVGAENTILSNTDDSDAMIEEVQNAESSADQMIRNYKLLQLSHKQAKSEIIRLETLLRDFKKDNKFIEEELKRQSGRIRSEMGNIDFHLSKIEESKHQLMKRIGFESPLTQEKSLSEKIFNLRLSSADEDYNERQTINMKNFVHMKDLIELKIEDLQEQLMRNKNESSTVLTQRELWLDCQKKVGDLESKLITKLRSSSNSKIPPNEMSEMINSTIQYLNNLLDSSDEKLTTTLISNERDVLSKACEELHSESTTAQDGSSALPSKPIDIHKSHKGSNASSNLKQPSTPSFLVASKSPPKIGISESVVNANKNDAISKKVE
Chain of UniProt P0AAI5 (whole entry, looked up): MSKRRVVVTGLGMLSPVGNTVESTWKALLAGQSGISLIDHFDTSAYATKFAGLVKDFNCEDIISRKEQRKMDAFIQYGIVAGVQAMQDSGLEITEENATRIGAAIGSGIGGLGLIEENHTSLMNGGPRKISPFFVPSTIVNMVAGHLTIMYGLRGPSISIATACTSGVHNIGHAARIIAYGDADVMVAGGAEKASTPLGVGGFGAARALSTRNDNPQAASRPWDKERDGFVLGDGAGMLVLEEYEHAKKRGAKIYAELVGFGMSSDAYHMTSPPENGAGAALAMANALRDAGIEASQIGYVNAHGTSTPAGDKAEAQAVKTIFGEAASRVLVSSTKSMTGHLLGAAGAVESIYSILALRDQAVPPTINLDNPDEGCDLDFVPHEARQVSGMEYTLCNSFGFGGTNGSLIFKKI
Chain of UniProt Q8NBP7 (whole entry, looked up): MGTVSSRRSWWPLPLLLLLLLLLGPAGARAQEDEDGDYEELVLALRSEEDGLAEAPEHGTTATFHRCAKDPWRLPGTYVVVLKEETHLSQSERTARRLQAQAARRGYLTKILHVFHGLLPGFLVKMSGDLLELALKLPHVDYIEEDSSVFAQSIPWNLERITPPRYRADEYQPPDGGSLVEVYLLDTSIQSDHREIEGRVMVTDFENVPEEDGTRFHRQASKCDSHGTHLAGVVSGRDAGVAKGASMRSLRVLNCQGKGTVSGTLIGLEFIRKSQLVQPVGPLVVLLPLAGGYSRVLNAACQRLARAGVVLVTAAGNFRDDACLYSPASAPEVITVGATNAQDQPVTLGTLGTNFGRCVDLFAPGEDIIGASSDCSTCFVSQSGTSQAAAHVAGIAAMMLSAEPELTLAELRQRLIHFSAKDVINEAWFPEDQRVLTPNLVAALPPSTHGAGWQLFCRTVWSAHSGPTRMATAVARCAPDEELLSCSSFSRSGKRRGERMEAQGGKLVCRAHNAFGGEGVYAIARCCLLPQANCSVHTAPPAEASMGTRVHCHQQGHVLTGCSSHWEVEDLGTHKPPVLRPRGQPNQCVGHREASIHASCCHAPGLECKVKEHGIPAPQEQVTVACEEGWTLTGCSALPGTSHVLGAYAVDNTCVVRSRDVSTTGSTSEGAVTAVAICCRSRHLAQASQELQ
Chain of UniProt Q8H159 (whole entry, looked up): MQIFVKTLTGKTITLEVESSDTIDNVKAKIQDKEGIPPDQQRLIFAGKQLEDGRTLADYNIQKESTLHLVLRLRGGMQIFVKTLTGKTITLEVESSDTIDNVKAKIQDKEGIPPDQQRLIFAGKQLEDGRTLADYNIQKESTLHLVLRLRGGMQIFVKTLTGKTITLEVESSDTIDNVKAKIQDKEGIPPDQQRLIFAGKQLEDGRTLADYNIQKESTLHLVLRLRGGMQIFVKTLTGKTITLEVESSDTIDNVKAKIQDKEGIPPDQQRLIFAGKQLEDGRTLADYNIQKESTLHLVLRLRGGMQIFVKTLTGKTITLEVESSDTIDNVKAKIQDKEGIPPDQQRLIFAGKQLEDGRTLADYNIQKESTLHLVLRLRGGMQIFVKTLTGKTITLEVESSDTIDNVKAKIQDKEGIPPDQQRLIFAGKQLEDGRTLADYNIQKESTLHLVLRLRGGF
Chain of UniProt Q9NR61 (whole entry, unmodified, looked up): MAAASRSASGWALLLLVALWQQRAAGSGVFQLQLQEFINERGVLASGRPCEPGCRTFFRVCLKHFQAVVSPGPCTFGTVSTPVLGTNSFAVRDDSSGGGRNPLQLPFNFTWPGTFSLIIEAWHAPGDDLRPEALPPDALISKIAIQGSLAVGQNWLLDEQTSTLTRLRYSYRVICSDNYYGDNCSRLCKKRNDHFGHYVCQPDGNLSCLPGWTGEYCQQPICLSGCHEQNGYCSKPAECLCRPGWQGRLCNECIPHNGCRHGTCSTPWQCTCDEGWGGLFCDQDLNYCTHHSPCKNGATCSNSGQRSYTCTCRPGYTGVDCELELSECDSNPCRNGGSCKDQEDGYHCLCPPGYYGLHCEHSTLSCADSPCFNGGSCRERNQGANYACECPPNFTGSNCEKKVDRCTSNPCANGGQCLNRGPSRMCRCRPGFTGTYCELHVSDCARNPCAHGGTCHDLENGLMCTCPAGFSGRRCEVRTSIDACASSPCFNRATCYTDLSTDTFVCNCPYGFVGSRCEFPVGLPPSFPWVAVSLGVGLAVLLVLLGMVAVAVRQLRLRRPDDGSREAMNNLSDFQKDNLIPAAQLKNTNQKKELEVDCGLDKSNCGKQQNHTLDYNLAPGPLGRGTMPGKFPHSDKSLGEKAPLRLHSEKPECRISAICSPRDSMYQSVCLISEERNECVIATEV
Chain of UniProt P40161 (68-301, looked up): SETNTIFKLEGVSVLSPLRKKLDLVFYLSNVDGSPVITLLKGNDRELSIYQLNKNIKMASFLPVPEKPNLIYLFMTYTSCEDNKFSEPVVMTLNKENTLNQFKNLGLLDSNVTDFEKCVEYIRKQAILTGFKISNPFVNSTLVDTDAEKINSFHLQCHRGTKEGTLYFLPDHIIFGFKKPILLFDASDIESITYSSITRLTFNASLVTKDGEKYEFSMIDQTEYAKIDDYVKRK

`B1 (ATG9 864-997)` gave a Kd of 0.79 µM (Atg23 full-length, dimer (yeast, UniProt Q06671); ITC; pH 8, 20 °C, NaCl 150 mM).
`PARRSEELVAEAHNLCTLLENAIQDTVREQDQSFTALDWSWLQTE (IKBKB 701-745 K703R/K704R (UniProt O14920); N-terminal FITC; sequence looked up)` gave a Kd of 6.52 µM (IKBKG residues 44-113 R75V/E78R; fluorescence polarisation; peptide).
For `B2 (BTN2A1 residues 271-527)`, the Kd was > 100 µM (BTN3A1 fragment (Homo sapiens); ITC).
With `B3 (TARDBP 262-414)` the Kd was 0.41 µM (HSPB8, fluorescein label (UniProt Q9UJY1); FP).
For `DNA topoisomerase 2-alpha (human)`, “log2 fold change” read 0.09 (PP6C (human); co-immunoprecipitation, IP-MS; CYB5R4 knockout cells; concentration not given; baseline: CYB5R4 knockout over parental).
`Notch ankyrin domain M115A/R107A (Drosophila)` gave a Kd of 23.9 µM (dx (Drosophila melanogaster, UniProt Q23985); AUC).
For `KLLMIIHDRREFAKFEKEKMNAKWDTQENPIYKSPINNFKNPNYGRKAGL (ITGB1 752-801 (Homo sapiens, UniProt P05556-5); sequence looked up)`, the Kd was 50 µM (Tln2 312-408 T358N (Mus musculus, UniProt Q71LX4); NMR titration).
The Kd of `B4 (UHRF1 RING-UBL 675-793)` is reported as 3.1 µM (UBE2D1 fragment (Homo sapiens); ITC; designed binder).
`RPSVITCA (VGLL4 (Homo sapiens))` has a Kd of 3.16 µM and 3.15 µM (IRF2BP2 fragment (Homo sapiens); ITC; peptide).
`PARSSSYHLALQ (PHLDB1 GBR (Homo sapiens); phosphoserine)` gave a Kd of 0.56 µM (DLG4 GK domain (Rattus norvegicus); ITC; peptide).
The Kd of `GEVAKAAKVK (IL1RAP 339-348 (Homo sapiens); acetylated N-terminus/C-terminal amide)` is reported as 47 µM (IL1RL1/IL33 ST2 , IL-33 19-328; SPR; peptide).
`B5 (Notch1 221-526)` gave a Kd of 0.025 µM (DLL4 27-400 G28S/F107L/I143F/H194Y/L206P/N257P/T271L/F280Y/S301R/Q305P (Homo sapiens, UniProt Q9NR61); SPR).
With `PCSK9 (Homo sapiens, UniProt Q8NBP7)` the Kd was 0.00062 µM (alirocumab IgG, PBS-stressed 14 d, Asn deamidation, heavy chain CDR1 Asn30 and Fc; SPR).
With `B6` the Kd was 2e-05 µM (IL18BP (Homo sapiens, UniProt O95998); SPR).
For `B7 (TNFSF4 51-183)`, the Kd was 1.6 µM (TNFRSF4 29-170 W86A (Homo sapiens, UniProt P43489); SPR).
For `B8 (Pigr 19-135)`, the Kd was 0.329 µM (Igha/Jchain CH2-CH3 with J chain P136A (Mus musculus); SPR).
For `B9 (acpP)`, the Kd was 0.89 µM (fabF (Escherichia coli, UniProt P0AAI5); fluorescence titration).
`HHT1 fragment` gave a Kd of 1900 ± 400 µM (RTT106 residues 68-301 (Saccharomyces cerevisiae, UniProt P40161); NMR titration).
With `B10 (ADRM1 265-388)` the Kd was 0.025 µM (UCHL5 M148A/F149A (Homo sapiens); ITC).
With `PUX2 (Arabidopsis thaliana, UniProt Q9ZU93)` the Kd was 79.5 ± 32.1 µM (UBQ10 mature (Arabidopsis thaliana, UniProt Q8H159); ITC; 25 °C).
`B11 (BBC3)` has a Kd of 5 µM (Bcl2l2 (Mus musculus, UniProt P70345); FRET or BRET; not purified).
With `B12 (SRS2 1107-1174 Q1155E)` the Kd was 5.2 µM (POL30 1-258 K127G (Saccharomyces cerevisiae, UniProt P15873); fluorescence polarisation; apparent).
Under “log2 fold change”, `B13 (human 4F2hc)` is recorded as -0.53 (PP6C (human); co-immunoprecipitation, IP-MS; CYB5R4 knockout cells; concentration not given; baseline: CYB5R4 knockout over parental).
The Kd of `VASP EVH1 domain (Dictyostelium discoideum)` is reported as > 100 µM (ABI3 peptide (Homo sapiens); BLI).
`Cacna1c distal C-terminal regulatory (Rattus norvegicus)` gave a Kd of 14 ± 5 µM (CACNA1C IQ motif 1644-1668, fluorescein label (UniProt P15381); fluorescence polarisation).
